Assay results of several laboratories.
Numbered parts are unrelated; each lists some results of a single study.

Sample 1 — method: competition protein-binding microarray; molecule type: double-stranded DNA, one strand shown; matrix: in vitro; concentration: 2 µM; together with: Cbf1 competitor, 0.05 µM; direction: higher = stronger binding
Target: Phosphate system positive regulatory protein PHO4, full length, GST-tagged (PHO4, Saccharomyces cerevisiae, UniProt P07270, residues 1-312)
Setting: whole 60-bp probe, lowest competitor level
Target sequence (chain): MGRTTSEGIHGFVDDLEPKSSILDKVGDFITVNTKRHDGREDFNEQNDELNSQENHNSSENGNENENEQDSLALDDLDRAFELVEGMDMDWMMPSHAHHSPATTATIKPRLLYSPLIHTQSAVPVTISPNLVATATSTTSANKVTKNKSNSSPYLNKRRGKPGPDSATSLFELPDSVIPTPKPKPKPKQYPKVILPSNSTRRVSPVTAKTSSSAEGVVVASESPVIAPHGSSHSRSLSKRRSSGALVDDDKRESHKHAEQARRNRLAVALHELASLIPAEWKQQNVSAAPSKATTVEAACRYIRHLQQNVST
For `CTAACGAAGGTTTGTCACCCCACTTACAAGCCAAGTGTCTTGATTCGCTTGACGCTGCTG`, the fluorescence intensity was 3590 a.u.
`AAACCATTCAGGTCTTGCGTGCCGAGAATTTTTTTTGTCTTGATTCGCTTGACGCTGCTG` gave a fluorescence intensity of 6330 a.u.
The fluorescence intensity of `AATTGGAGAACACATTTCGTGGGTATTTCGACCCAAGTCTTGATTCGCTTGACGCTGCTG` is reported as 5060 a.u.
With `CGCCCTATTCTGCACAGCGTGATGGGCTGTCTGACAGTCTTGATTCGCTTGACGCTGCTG` the fluorescence intensity was 6200 a.u.
For `CGTCCTAGTGATTGCAATGTGGGTGCCATGAGGAAGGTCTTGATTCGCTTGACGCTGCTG`, the fluorescence intensity was 7570 a.u.
The fluorescence intensity of `AGCCACATCAACTGTCACATGTATGGAAAACTCGCAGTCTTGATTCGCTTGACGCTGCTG` is reported as 7940 a.u.
The fluorescence intensity of `TTGGTGTTTCTGCCTTACGTGGTGAGTTTAAGGACCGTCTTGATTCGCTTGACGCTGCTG` is reported as 4860 a.u.
For `ATATCGTCGAATTGTCATGTGATGAAGCCAATTTATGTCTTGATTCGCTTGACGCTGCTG`, the fluorescence intensity was 6090 a.u.

Sample 2 — cell line: HEK-293T; effect on: pseudovirus infection; method: FDA-approved drug library screen; organism: VSV pseudotyped with SARS-CoV-2 spike; concentration: 10 µM; time: 16 h; relative to: vehicle-treated
For `CC(C)NCC(O)COc1cccc2[nH]ccc12` (stereo not drawn), the GFP-positive cells was 91.9%.
For `CCOC(=O)C1=C(C)NC(C)=C(C(=O)OC)C1c1cccc(Cl)c1Cl` (stereo not drawn), the GFP-positive cells was 36.2%.
The GFP-positive cells of `COc1cc2c(cc1OC)C1CC(=O)C(CC(C)C)CN1CC2` (stereo not drawn) is reported as 76.4%.
The GFP-positive cells of `CC1(C)C(C=C(Cl)Cl)C1C(=O)OCc1cccc(Oc2ccccc2)c1` (stereo not drawn) is reported as 78.3%.
For `CC1(C)S[C@@H]2[C@H](NC(=O)[C@H](NC(=O)N3CCNC3=O)c3ccccc3)C(=O)N2[C@H]1C(=O)O`, the GFP-positive cells was 105%.

Sample 3 — action: inhibitor; concentration: 20 µM
Target: Replicase polyprotein 1ab, nsp13 helicase (rep, Severe acute respiratory syndrome coronavirus 2, UniProt P0DTD1)
For `O=C1Cc2cc(CCN3CCN(c4nsc5ccccc45)CC3)c(Cl)cc2N1`, the inhibition was 4.39%.
With `CNCC(O)c1ccc(O)c(O)c1` (racemic) the inhibition was 66.6%.
The inhibition of `COc1c(-c2ccc3cc(NS(C)(=O)=O)ccc3c2)cc(-n2ccc(=O)[nH]c2=O)cc1C(C)(C)C` is reported as 1.53%.
For `COc1ccc(CCO[C@@H]2CCCC[C@H]2N2CC[C@@H](O)C2)cc1OC`, the inhibition was 5.24%.
`N[C@@H]1CONC1=O` gave an inhibition of 0.81%.
`Cc1nccc2[nH]c(=O)ccc12` has an inhibition of 1.5%.
`CC1=CC(=O)c2ccccc2C1=O` has an inhibition of 21.6%.
The inhibition of `Nc1[nH]nc2nc3ccccc3nc12` is reported as -0.99%.
`C/C(=N\NC(=O)C(NC(=O)c1ccccc1)c1n[nH]c(=O)c2ccccc12)c1cccc(Br)c1` (stereo not drawn) has an inhibition of 5.49%.
The inhibition of `O=C1C=C2C=C[C@@H]3C[C@@]2(O1)[C@H]1CCCCN31` is reported as 0.74%.
`CC[N+](CC)(CC)CCC(O)(c1ccccc1)C1CCCCC1` (stereo not drawn) gave an inhibition of 3.21%.
`COc1ccc([C@@H]2CNC(=O)C2)cc1OC1CCCC1` gave an inhibition of -0.06%.
With `CC(=O)O[C@]1(C(C)=O)CC[C@H]2[C@@H]3C[C@H](C)C4=CC(=O)CC[C@]4(C)[C@H]3CC[C@@]21C` the inhibition was 1.87%.
With `C[C@@H](CN1CC(=O)NC(=O)C1)N1CC(=O)NC(=O)C1` the inhibition was -11.8%.
`COc1cc2ncn(-c3cc(OCc4ccccc4C(F)(F)F)c(C(N)=O)s3)c2cc1OC` gave an inhibition of 3.06%.
`CCCN(CCC)C(=O)C(CCC(=O)O)NC(=O)c1ccccc1` (stereo not drawn) has an inhibition of -4.55%.
The inhibition of `Cc1[nH]c2ccc(Cl)cc2c1C1=CCNCC1` is reported as -5.66%.
For `CC(=O)O[C@H]1C[C@@]2(C)[C@@H](C[C@@H](O)[C@H]3[C@@]4(C)CC[C@@H](O)[C@@H](C)[C@@H]4CC[C@@]32C)/C1=C(\CCC=C(C)C)C(=O)O`, the inhibition was 6.36%.
`N[C@H](Cc1ccccc1)C(=O)O` gave an inhibition of 4.71%.
`OC[C@H]1O[C@@H](Oc2ccc(O)cc2)[C@H](O)[C@@H](O)[C@@H]1O` gave an inhibition of 4.77%.
With `CS(=O)(=O)c1cccc(CNc2nc(Nc3ccc4c(c3)CCC(=O)N4)ncc2C(F)(F)F)c1` the inhibition was 5.48%.
For `NC(=O)CN1Cc2ccccc2OC1=O`, the inhibition was 0.82%.
With `COc1cc2c(cc1C(F)(F)F)N(C(=O)Nc1cc(F)cc(-c3cccnc3)c1)CC2` the inhibition was -3.4%.
`c1ccc2c(c1)CCCC2C1=NCCN1` (stereo not drawn) has an inhibition of 2.75%.
For `O=C(O)C1CCCN(CCC=C(c2ccccc2)c2ccccc2)C1` (stereo not drawn), the inhibition was 2.62%.

Sample 4 — effect on: enzyme activity; concentration: 20 µM; setting: with DTT
Target: Replicase polyprotein 1ab, main protease (rep, Severe acute respiratory syndrome coronavirus 2, UniProt P0DTD1)
The inhibition of `Cc1ccc(C)c(-n2sc3cc(F)ccc3c2=O)c1` is reported as 99.4%.
With `CCCOc1ccc(CSc2nnc[nH]2)cc1` the inhibition was 32.8%.
`Sc1nnc(Nc2ccccc2)s1` has an inhibition of 97.3%.
`Nc1nnc(Sc2ncc([N+](=O)[O-])s2)s1` gave an inhibition of 25.9%.
The inhibition of `Cc1ccc(C(=O)n2nc(-c3cccnc3)nc2N)cc1` is reported as 49.7%.

Sample 5 — method: RNA Bind-n-Seq; molecule type: RNA; matrix: in vitro; concentration: 365 nM; relative to: no-protein control; direction: higher = stronger binding
Target: RNA binding protein fox-1 homolog 2, RRM domain, GST-SBP tag (RBFOX2, Homo sapiens, UniProt O43251-10, residues 100-194)
Setting: natural RNA segment, single round, ends assumed
Residues (chain): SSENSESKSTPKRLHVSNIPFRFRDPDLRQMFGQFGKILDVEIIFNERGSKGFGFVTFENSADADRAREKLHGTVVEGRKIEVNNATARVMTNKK
Under “RBNS enrichment (R)”, `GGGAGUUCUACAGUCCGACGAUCGAGAAAUGUCCAAAAGAGAUCUGCUGAUCUGCUGAGAGUUUCAAACAAACAAAAAAAUAAUCUCUAUGUAUGUGUUGGAUAAAGUCUACAGACUGACUAACAUGCAUUAGUGGAAUUCUCGGGUGCCAA` is recorded as 0.48.
`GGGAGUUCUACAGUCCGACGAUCCAAAUUGUCCUACUGACGUUGAAAGCAAACCUUUGUUCAUUCCCAGGGCACUAGAAUGAUCUUUAGCCUUGCUUGGAUUGAACUAGGAGAUCUUGACUCUGAGGAGAGCCUGGAAUUCUCGGGUGCCAA`: “RBNS enrichment (R)” 0.64.
For `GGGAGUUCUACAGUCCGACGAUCAUAUUCGGGGGAGUAAGGAAAUAAGUUAUGUUUAAUAAUAGCUUAAGAUGACCAGCAAUGCCUGUAGAAGGCUUUGUCCGUUUUUGGCAGAAGGCCUAGGGCAUCGAAAAUGGAAUUCUCGGGUGCCAA`, “RBNS enrichment (R)” read 0.519.
Under “RBNS enrichment (R)”, `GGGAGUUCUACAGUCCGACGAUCAAAAACCUCUAUUUAGAUUUCAAUAAUCAGAGAAGUGUAAAAUAAAACAGAUUAUAUUGUACUUGACCUUUAUGUCUUUAAAGAUAGUUAAUGCAACCCUGAGGCUUGGGUGGAAUUCUCGGGUGCCAA` is recorded as 0.468.
`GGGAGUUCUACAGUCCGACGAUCGCUGCUCUUAGCGCCGGCUCUGCCUCUCCACCCUUGGCAGGGCUGGCUGGAGUUGCUGUGGGGACUGAUUUUCUGGGUGGGGAAGCAGCCAUCUAUUCUUGCAGCCAUCUUGGAAUUCUCGGGUGCCAA` — result for “RBNS enrichment (R)”: 0.278.
`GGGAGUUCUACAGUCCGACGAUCGGGCAAGUUCAUUGUGCUACCCUCCCAAUUCCCCCAUUAUGGAGUAACCAGUAUUAUUCAGUGAGCUAUGGGGUAGUGUUUCACUCCUUGCUUCAAUAUGGUUUUUUCCUUGGAAUUCUCGGGUGCCAA`: “RBNS enrichment (R)” 0.405.
`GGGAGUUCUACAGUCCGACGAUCUAUCUGGGGGCACAUAGGUGAGUCUGCUCCACUCAGAAGGAAGCAUACCUCUGCCCUCAUCCAGGGGACACAGGGUACAUCCCAGGCAUCGGGGAACUGAAGCUCUCACUUGGAAUUCUCGGGUGCCAA`: “RBNS enrichment (R)” 0.249.
`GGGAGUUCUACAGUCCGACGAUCAGAAGAAAUGUGGAGCGGAAACCCAGCACGAGGGGCUAGAACUCAGGGUAGAGAAUUUGCAGGCGGUGCAGACAGACUUUAGCUCCGAUCCACUGCAGAAAGUUGUGUGCUGGAAUUCUCGGGUGCCAA`: “RBNS enrichment (R)” 3.96.

A few entries again (sample 3):
For `CC(=O)O[C@H]1C[C@@]2(C)[C@@H](C[C@@H](O)[C@H]3[C@@]4(C)CC[C@@H](O)[C@@H](C)[C@@H]4CC[C@@]32C)/C1=C(\CCC=C(C)C)C(=O)O`, the inhibition was 6.36%.
`N[C@H](Cc1ccccc1)C(=O)O` gave an inhibition of 4.71%.
`OC[C@H]1O[C@@H](Oc2ccc(O)cc2)[C@H](O)[C@@H](O)[C@@H]1O` gave an inhibition of 4.77%.
With `CS(=O)(=O)c1cccc(CNc2nc(Nc3ccc4c(c3)CCC(=O)N4)ncc2C(F)(F)F)c1` the inhibition was 5.48%.
